Experimental data of several laboratories.
Each numbered part is a random draw from the data of one study; scales do not carry over between parts.

Block 1
Target: Histone acetyltransferase KAT6A, both winged helices, GST fusion (KAT6A, Homo sapiens, UniProt Q92794, residues 1-181)
Technique: protein binding microarray
Form: double-stranded DNA, one strand shown
Medium: in vitro
Tested at: not given
Notes: 8-mer, flanks averaged, mean of 2 arrays, mostly near background
Reference: not given
Reading: higher = stronger binding
Quantity: E-score
Target sequence (chain): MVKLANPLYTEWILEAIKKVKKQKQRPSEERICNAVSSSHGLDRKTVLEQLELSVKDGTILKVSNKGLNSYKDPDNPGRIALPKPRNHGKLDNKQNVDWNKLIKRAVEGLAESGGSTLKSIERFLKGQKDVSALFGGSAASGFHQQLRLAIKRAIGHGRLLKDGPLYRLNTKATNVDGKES
GGTTTAAA: -0.0864
CTGTAAAA: -0.065
CTGAATCC: -0.0977
GGACCCTA: -0.183
ACACAGTA: -0.0907

Block 2
Target: Interferon regulatory factor 7, full length, phosphomimetic (IRF7, Homo sapiens, UniProt Q92985, residues 1-503, S101K/S471D/S472D/S475D/S476D/S477D/S483D/S484D/S487D)
Technique: protein-binding microarray
Form: double-stranded DNA, one strand shown
Medium: in vitro
Tested at: 250 nM
Notes: 60-bp whole probe
Added: salmon DNA 0.4 mg/ml
Reference: random background probes
Reading: higher = stronger binding
Quantity: log fluorescence
Target sequence (chain): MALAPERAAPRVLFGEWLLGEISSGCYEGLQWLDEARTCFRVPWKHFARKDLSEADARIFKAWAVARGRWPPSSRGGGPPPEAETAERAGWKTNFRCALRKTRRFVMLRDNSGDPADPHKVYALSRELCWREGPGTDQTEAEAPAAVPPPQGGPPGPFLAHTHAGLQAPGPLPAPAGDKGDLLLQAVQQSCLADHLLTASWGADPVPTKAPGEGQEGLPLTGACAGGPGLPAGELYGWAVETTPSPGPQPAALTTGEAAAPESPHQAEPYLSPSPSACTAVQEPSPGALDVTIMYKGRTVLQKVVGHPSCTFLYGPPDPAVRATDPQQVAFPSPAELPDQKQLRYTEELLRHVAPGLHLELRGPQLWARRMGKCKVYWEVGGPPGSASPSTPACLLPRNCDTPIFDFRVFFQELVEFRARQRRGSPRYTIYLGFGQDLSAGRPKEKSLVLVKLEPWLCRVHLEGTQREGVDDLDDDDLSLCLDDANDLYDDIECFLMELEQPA
GCCTAGCACCAGAATCCCCTTCTACTCTCGTGCTAGGTCTTGATTCGCTTGACGCTGCTG: 0.311 z-score
GCCTAGCACGACGGACTGGACTAGCGGGACGTGCTAGTCTTGATTCGCTTGACGCTGCTG: -0.751 z-score
GCCTAGCACTTAGGTATCGGCACTGGGTTAGTGCTAGTCTTGATTCGCTTGACGCTGCTG: -0.571 z-score
GCCTAGCACGACGGTTTCGGTTTCGGGGCGTGCTAGGTCTTGATTCGCTTGACGCTGCTG: 13.8 z-score

Block 3
Target: Sal-like protein 4, full length isoform B (SALL4, Homo sapiens, UniProt Q9UJQ4-2, residues 1-616)
Technique: universal PBM
Form: double-stranded DNA, one strand shown
Medium: in vitro
Tested at: not given
Notes: 8-mer, flanks averaged, mean of replicates
Reading: higher = stronger binding
Quantity: E-score
Construct (chain): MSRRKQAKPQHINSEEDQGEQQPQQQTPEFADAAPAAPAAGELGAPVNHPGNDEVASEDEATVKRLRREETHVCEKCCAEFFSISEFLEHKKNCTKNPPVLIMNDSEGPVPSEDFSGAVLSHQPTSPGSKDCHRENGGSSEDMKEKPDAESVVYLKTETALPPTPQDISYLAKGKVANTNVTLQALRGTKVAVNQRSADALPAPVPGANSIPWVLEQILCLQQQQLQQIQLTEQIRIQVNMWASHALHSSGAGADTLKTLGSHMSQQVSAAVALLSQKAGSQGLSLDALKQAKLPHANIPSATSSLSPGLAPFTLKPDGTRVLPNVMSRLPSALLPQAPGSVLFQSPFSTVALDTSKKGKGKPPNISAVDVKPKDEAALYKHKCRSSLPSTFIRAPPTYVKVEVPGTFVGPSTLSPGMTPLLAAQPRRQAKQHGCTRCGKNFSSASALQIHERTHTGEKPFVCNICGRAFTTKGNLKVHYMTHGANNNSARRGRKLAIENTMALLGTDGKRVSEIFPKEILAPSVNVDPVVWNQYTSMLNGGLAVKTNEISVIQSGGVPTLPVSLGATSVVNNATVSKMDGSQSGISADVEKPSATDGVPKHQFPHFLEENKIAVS
ATTAGATG: 0.314
CGAGGTCA: -0.175
CAAAAAGC: 0.186
CACTCTTA: 0.0492
ACTTGCTG: -0.0366
CCGGCGGA: -0.232
AGGGGGTG: -0.19

Mixed results
PhoQ, residues 284 288 289 292 302 303 SSTLLI — fold induction (PhoP, residues 12 14 15 18 19 NHFIF (Escherichia coli, UniProt P23836); Sort-seq, refers to: YFP reporter; E. coli; PhoQ-PhoP variant library, added: 10 µM Mg2+; reference: high Mg2+ state, higher = stronger signaling): 3.75

Repeated from above (block 2):
GCCTAGCACGACGGACTGGACTAGCGGGACGTGCTAGTCTTGATTCGCTTGACGCTGCTG: -0.751 z-score
GCCTAGCACTTAGGTATCGGCACTGGGTTAGTGCTAGTCTTGATTCGCTTGACGCTGCTG: -0.571 z-score
GCCTAGCACGACGGTTTCGGTTTCGGGGCGTGCTAGGTCTTGATTCGCTTGACGCTGCTG: 13.8 z-score
